Assay results pooled from the literature.
Protocols differ between the studies behind these lines. pIC50: −log10 of the molar value.
Target: Histone deacetylase 8 (HDAC8, Homo sapiens, UniProt Q9BY41)
Effect on: enzyme activity
Action: inhibitor
Residues used in one study (Q9BY41 1-377): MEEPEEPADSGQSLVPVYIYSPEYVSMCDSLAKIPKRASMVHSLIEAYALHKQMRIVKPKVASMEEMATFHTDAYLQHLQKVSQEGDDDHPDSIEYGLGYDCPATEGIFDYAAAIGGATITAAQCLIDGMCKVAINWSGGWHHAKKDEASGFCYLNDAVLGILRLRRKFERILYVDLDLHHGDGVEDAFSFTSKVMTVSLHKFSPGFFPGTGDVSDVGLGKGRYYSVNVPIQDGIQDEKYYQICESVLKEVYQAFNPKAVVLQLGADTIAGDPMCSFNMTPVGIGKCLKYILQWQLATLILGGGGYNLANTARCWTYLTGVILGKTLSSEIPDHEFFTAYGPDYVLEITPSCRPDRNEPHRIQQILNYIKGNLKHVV

Cc1c(COc2cc(OCc3cccc(C#N)c3)c(CNC(CO)CO)cc2Cl)cccc1-c1cccc(OCCCCCCC(=O)NO)c1  pIC50: < 6.00
Cc1cc(C(C)(C)C)ccc1OS(=O)(=O)Oc1cccc(/C=C/C(=O)NO)c1  pIC50 (fluorescence): 5.18
Cc1c(COc2cc(OCc3cccc(C#N)c3)c(CN3CCCC[C@H]3C(=O)O)cc2Cl)cccc1-c1cccc(OCCCCCC(=O)NO)c1  pIC50: < 6.00
O=C(NO)c1cc(F)cc(OS(=O)(=O)Oc2ccc(Br)cc2)c1  pIC50 (fluorescence): 5.92
Nc1ccc(-c2ccc(F)cc2)cc1NC(=O)C1CCOCC1  pIC50: < 4.48
Cc1c(COc2cc(OCc3cccc(C#N)c3)c(CNC(CO)(CO)CO)cc2Cl)cccc1-c1cccc(OCCCCCC(=O)NO)c1  pIC50: < 6.00
CCCCCCCCCCCCCCN(O)C(=O)CCCCC[C@@H]1NC(=O)[C@H]([C@@H](C)CC)NC(=O)[C@H](Cc2ccccc2C(F)(F)F)NC(=O)CCSCc2cccc(n2)CSCCCNC1=O  pIC50 (fluorogenic): < 4.52
CN(Cc1ccc(/C=C/C(=O)NO)cc1)CC12CC3CC(CC(C3)C1)C2  pIC50: < 4.82
CC[C@H](C)[C@@H]1NC(=O)[C@H](Cc2ccccc2C(F)(F)F)NC(=O)CCSCc2cccc(n2)CSCCCNC(=O)[C@H](CCCCCC(=O)NO)NC1=O  pIC50 (fluorescence): 6.82
Cc1c(COc2cc(OCc3cccc(C#N)c3)c(CNC(C)(CO)CO)cc2Cl)cccc1-c1cccc(OCCCCCC(=O)NO)c1  pIC50: < 6.00
O=C(NO)c1cccc(OS(=O)(=O)Oc2cccc([N+](=O)[O-])c2)c1  pIC50 (fluorescence): 7.47
Cc1nc2c(F)cc(-c3nc(Nc4ccc(CNC(=O)CCCCCCC(=O)NO)cc4)ncc3F)cc2n1C(C)C  pIC50: < 5.00
O=C(NO)c1cc(F)cc(OS(=O)(=O)Oc2ccc3ccccc3c2)c1  pIC50 (fluorescence): 5.90
Cc1c(COc2cc(OCc3cccc(C#N)c3)c(CN3CCCC[C@@H]3C(=O)O)cc2Cl)cccc1-c1cccc(OCCCCCCC(=O)NO)c1  pIC50: < 6.00
CC(C)c1ccc(OS(=O)(=O)Oc2cncc(C(=O)NO)c2)cc1  pIC50 (fluorescence): 6.05
O=C(CCc1ccc(CNC(C(=O)O)C2CCCCC2)cn1)NO (stereo not shown)  pIC50: 5.17
